Assay results of several laboratories.
Compare with care: the assays were run in different laboratories. ± marks the error that the study gave.

The EC50 of `CC[C@H](C)[C@H](NC(=O)[C@H](CCCCN)NC(=O)[C@H](CCCCN)NC(=O)[C@H](C)NC(=O)[C@H](CC(C)C)NC(=O)[C@H](C)NC(=O)[C@H](C)NC(=O)[C@H](CC(C)C)NC(=O)[C@H](C)NC(=O)[C@H](CCCCN)NC(=O)[C@H](CC(C)C)NC(=O)[C@H](CC(N)=O)NC(=O)[C@@H](NC(=O)[C@H](CC(=O)O)NC(=O)CNC(=O)[C@H](CC(C)C)NC(=O)[C@H](CC(C)C)NC(=O)[C@H](Cc1c[nH]c2ccccc12)NC(=O)CNC(=O)[C@H](C)N)[C@@H](C)CC)C(=O)N[C@@H](CC(C)C)C(N)=O` is reported as 50 ± 7 µM (sheep erythrocytes; turbidity; pH 7.5).
For `CN[C@H](CC(=O)O)C(=O)O`, the EC50 was 106 µM (cerebellar granule cells; cell viability increase, MTT; 16 h, K5 medium).
For `c1ccc([C@@H]2C[C@H]2NC2CCNCC2)cc1`, the EC50 was 0.00062 µM (THP-1; cell differentiation, flow cytometry, item: CD11b; 96 h).
`N#Cc1nn(-c2c(Cl)cc(C(F)(F)F)cc2Cl)c(N)c1[S+]([O-])C(F)(F)F` (stereo not drawn) gave an EC50 of 24.1 ± 0.4 µM (Caco-2; viability, MTT; 72 h).
The EC50 of `C=CCn1c(=O)c2cnc(Nc3ccc(N4CCN(C)CC4)cc3)nc2n1-c1cccc(C(C)(C)O)n1` is reported as 0.29 µM (ONS-76; cell growth or viability, MTS).
`O=C(NC(=O)c1c(F)cccc1F)Nc1cc(Cl)c(F)c(Cl)c1F` gave an EC50 of 471 ± 37.6 µM (Caco-2; viability, MTT; 168 h).
For `CC[C@H](C)[C@H](NC(=O)[C@H](CCCCN)NC(=O)[C@H](CC(C)C)NC(=O)[C@H](CC(C)C)NC(=O)[C@H](C)NC(=O)CNC(=O)[C@H](CC(C)C)NC(=O)[C@@H](N)Cc1ccccc1)C(=O)NCC(=O)N[C@@H](C)C(=O)N[C@@H](CCCCN)C(=O)N[C@@H](CC(C)C)C(=O)N[C@@H](CC(C)C)C(=O)N1CCC[C@H]1C(=O)N[C@@H](CO)C(=O)N[C@H](C(=O)N[C@H](C(=O)NCC(=O)N[C@@H](CC(C)C)C(=O)N[C@@H](Cc1ccccc1)C(=O)N[C@@H](CCCCN)C(=O)N[C@@H](CCCCN)C(=O)N[C@@H](CCCCN)C(=O)N[C@@H](CCC(N)=O)C(=O)N[C@@H](CCC(N)=O)C(=O)O)C(C)C)C(C)C`, the EC50 was 0.89 ± 0.05 µM (HEK293 cells; intracellular calcium, FLIPR; 0.1% BSA).
`CC1(C)[C@H](C(=O)O[C@H](C#N)c2cccc(Oc3ccccc3)c2)[C@@H]1C=C(Br)Br` has an EC50 of 191 ± 5.5 µM (Caco-2; viability, MTT; 72 h).
`CC[C@H](C)[C@H](NC(=O)[C@H](Cc1c[nH]c2ccccc12)NC(=O)[C@H](CCCCN)NC(=O)[C@@H](NC(=O)[C@H](CC(C)C)NC(=O)[C@H](CC(=O)O)NC(=O)CNC(=O)[C@@H](NC(=O)[C@@H](NC(=O)[C@H](CO)NC(=O)[C@@H](NC(=O)[C@@H](NC(=O)[C@H](CC(=O)O)NC(=O)[C@H](CCC(N)=O)NC(=O)[C@H](C)NC(=O)[C@H](CCSC)NC=O)[C@@H](C)CC)[C@@H](C)CC)[C@@H](C)O)[C@@H](C)CC)C(C)C)C(=O)N[C@H](C(=O)N[C@@H](CC(=O)O)C(=O)N[C@H](C(=O)N[C@H](C(=O)N[C@@H](CC(N)=O)C(=O)N[C@@H](CCCCN)C(=O)N[C@@H](Cc1ccccc1)C(=O)N[C@H](C(=O)N[C@@H](CCCCN)C(=O)N[C@@H](CCCCN)C(=O)O)[C@@H](C)O)C(C)C)[C@@H](C)O)[C@@H](C)CC` gave an EC50 of 12.7 ± 2.4 µM (sheep erythrocytes; turbidity; pH 7.5).

Some of these lines once more:
For `c1ccc([C@@H]2C[C@H]2NC2CCNCC2)cc1`, the EC50 was 0.00062 µM (THP-1; cell differentiation, flow cytometry, item: CD11b; 96 h).
